{"data": "Assay results of several laboratories", "note": "Each numbered part is a random draw from the data of one study; scales do not carry over between parts. Positions count from the first letter of the parent shown."}
{"data": "Sample 1", "target": "Runt-related transcription factor 1, full length (RUNX1, Homo sapiens, UniProt Q01196-8, residues 1-480)", "method": "protein-binding microarray", "molecule type": "hairpin DNA", "sample": "in vitro", "concentration": "not given", "notes": "whole hairpin DNA, median over replicate spots", "baseline": "not given", "direction": "higher = stronger binding"}
{"Oligonucleotide": "CTCAGTTCTGCGGGCTGGACTCCTGTCCAGCCCGCAGAACTGAGACACTC (5mC at 33)", "median fluorescence": "1730 a.u."}
{"Oligonucleotide": "GAGGCCTGTTGGGGTTGGCCTCCTGGCCAACCCCAACAGGCCTCACACTC", "median fluorescence": "1900 a.u."}
{"Oligonucleotide": "CTCAGTTCTGTGGGCCGGACTCCTGTCCGGCCCACAGAACTGAGACACTC (5mC at 16 28)", "median fluorescence": "1910 a.u."}
{"Oligonucleotide": "CTCAGTTCTGTGGGCGGGACTCCTGTCCCGCCCACAGAACTGAGACACTC (5mC at 29)", "median fluorescence": "2430 a.u."}
{"Oligonucleotide": "GAGGCCGAACCGCAACAGCCTCCTGGCTGTTGCGGTTCGGCCTCACACTC (5mC at 38)", "median fluorescence": "3800 a.u."}
{"Oligonucleotide": "GAGGCCTGTCGCGGTTGGCCTCCTGGCCAACCGCGACAGGCCTCACACTC (5mC at 10 32)", "median fluorescence": "1880 a.u."}
{"Oligonucleotide": "GAGGCCTGTTGCGGGTGGCCTCCTGGCCACCCGCAACAGGCCTCACACTC", "median fluorescence": "2400 a.u."}
{"Oligonucleotide": "GAGGCCTGTTGCGGTCGGCCTCCTGGCCGACCGCAACAGGCCTCACACTC (5mC at 16)", "median fluorescence": "4060 a.u."}
{"data": "Sample 2", "target": "HLA class I histocompatibility antigen, A alpha chain, allele A*80:01 (Homo sapiens, UniProt P04439)", "read-out": "peptide-MHC binding", "molecule type": "peptide", "concentration": "concentration not given"}
{"Sequence": "YENAVWDQY", "binding": "inactive"}
{"Sequence": "GQMYNMNTL", "binding": "inactive"}
{"Sequence": "GIVCYNEEV", "binding": "inactive"}
{"data": "Sample 3", "target": "Hepatocyte nuclear factor 3-beta, forkhead domain (FOXA2, Homo sapiens, UniProt Q9Y261, residues 142-269)", "method": "protein-binding microarray", "molecule type": "double-stranded DNA, one strand shown", "sample": "in vitro", "concentration": "not given", "notes": "k-mer, scored over probes, only values ≥0.25", "direction": "higher = stronger binding", "Target sequence (chain)": "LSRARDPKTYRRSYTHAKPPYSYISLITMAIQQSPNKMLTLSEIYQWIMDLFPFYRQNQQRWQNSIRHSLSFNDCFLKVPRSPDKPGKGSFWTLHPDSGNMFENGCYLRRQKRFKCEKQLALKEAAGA"}
{"Oligonucleotide": "TAGTATGA", "E-score": 0.342}
{"Oligonucleotide": "ATCATATA", "E-score": 0.335}
{"Oligonucleotide": "ACACGATA", "E-score": 0.295}
{"Oligonucleotide": "AAAATACA", "E-score": 0.294}
{"Oligonucleotide": "AACATGTG", "E-score": 0.274}
{"Oligonucleotide": "ACATAAAC", "E-score": 0.329}
{"Oligonucleotide": "ACTATATC", "E-score": 0.364}
{"Oligonucleotide": "ACAATCAC", "E-score": 0.273}
{"data": "Sample 4", "target": "CCND2, cyclin fold, Cln2 fusion (human)", "method": "yeast growth competition, sequencing", "sample": "yeast", "notes": "strong parent motif", "baseline": "not given", "direction": "higher = stronger binding", "starting sequence": "viral docking peptide; YKVKRRLVFGADD; partner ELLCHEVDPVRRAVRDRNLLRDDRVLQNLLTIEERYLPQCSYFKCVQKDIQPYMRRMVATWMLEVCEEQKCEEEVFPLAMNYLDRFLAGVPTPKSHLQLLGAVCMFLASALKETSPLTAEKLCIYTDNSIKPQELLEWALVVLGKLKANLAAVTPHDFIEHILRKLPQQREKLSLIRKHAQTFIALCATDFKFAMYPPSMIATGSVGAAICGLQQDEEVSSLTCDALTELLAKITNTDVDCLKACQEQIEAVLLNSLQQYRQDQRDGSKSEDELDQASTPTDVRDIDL"}
{"Substitution": "R5C", "normalised enrichment score": 0.32}
{"Substitution": "K4T", "normalised enrichment score": 0.429}
{"Substitution": "R5A L7A", "normalised enrichment score": 0.137}
{"Substitution": "R5V", "normalised enrichment score": 0.756}
{"Substitution": "R5Q", "normalised enrichment score": 0.283}
{"Substitution": "V3K", "normalised enrichment score": 0.583}
{"Substitution": "K2A", "normalised enrichment score": 0.798}
{"Substitution": "A11Y", "normalised enrichment score": 1.21}
{"Substitution": "R6N", "normalised enrichment score": 0.297}
{"Substitution": "R6A", "normalised enrichment score": 0.616}
{"Substitution": "R5K", "normalised enrichment score": 0.613}
{"Substitution": "D12F", "normalised enrichment score": 0.809}
{"Substitution": "D12V", "normalised enrichment score": 0.959}
{"Substitution": "A11H", "normalised enrichment score": 1.18}
{"Substitution": "R6T", "normalised enrichment score": 0.166}
{"Substitution": "L7T", "normalised enrichment score": -0.0443}
{"note": "Some of these lines once more (sample 4):"}
{"Substitution": "R6N", "normalised enrichment score": 0.297}
{"Substitution": "L7T", "normalised enrichment score": -0.0443}
{"Substitution": "R5V", "normalised enrichment score": 0.756}
{"Substitution": "D12F", "normalised enrichment score": 0.809}
